Measured values pooled from the literature.
Lines come from different studies, so protocols differ. ± marks the error that the study gave.

SMILES	cell line	test	conditions	how to read	quantity	result
COc1cc(C(=O)N/N=C/c2cccc3ccccc23)cc(OC)c1OC	NALM-6	cell growth or viability, MTT	48 h	–	IC50	0.0885 µM
C[C@H](c1ccccc1)N1C(=O)C2=Nc3ccc(Br)cc3CN2C1=S	healthy human PBMCs	cell viability, resazurin	–	–	IC50	2.2 ± 0.2 µM
CNS(=O)(=O)Nc1nccc(Cc2c(C)c3ccc(Oc4ncccc4F)cc3oc2=O)c1F	HCT-8	cell viability	7 days	–	IC50	0.051 µM
CC#CC(=O)N1CCC[C@H]1c1nc(-c2ccc(C(=O)Nc3ccccn3)cc2)c2c(N)nccn12	TMD8, parental	cell viability, CellTiter-Glo	4 days	–	IC50	0.014 µM
NC(NN=Cc1ccc([N+](=O)[O-])o1)=[S+][Au-][Cl]	CAKI-1	cell growth or viability, resazurin	–	–	IC50	25.6 µM
NC(=O)c1ccc(-c2ccccc2Cl)c2c3c([nH]c12)CCC(N)C3 (stereo not drawn)	K562	cell growth or viability	–	–	IC50	0.0265 µM
CC(=O)N[C@@H](CSC1CC(=O)N(CCCCCC(=O)NC2(C(=O)N3CCC(n4cc(Cc5ccc6c7c(cccc57)C(=O)N6C5CCC(=O)NC5=O)cn4)CC3)CCC2)C1=O)C(=O)O (stereo partly drawn)	NCI-H929	cell growth or viability	72 h	–	IC50	0.0149 µM
O=C(O)C(CO)NCc1cc(Cl)c(OCc2cccc(-c3ccccc3)c2Br)cc1OCc1cccnc1 (stereo not drawn)	HCT-8	cell growth or viability, MTT	–	–	IC50	> 10 µM
O=C1C2=Nc3ccccc3CN2C(=S)N1c1ccc([N+](=O)[O-])cc1	healthy human PBMCs	cell viability, resazurin	–	–	IC50	19.8 ± 4.8 µM
COC(OC)c1ccc(-c2ccc(O)cc2)c(C(=C2C=CC(=O)C=C2)c2ccc(O)cc2)c1C#Cc1ccc(O)cc1	MGC-803	cell growth or viability, MTT	48 h	–	IC50	> 50 µM
CC(C)c1ccc(N(C)c2ccc3c(c2)OCC[C@H]3CNc2cnccc2C(=O)O)cc1	NCI-H2172	cell growth or viability, ATP luminescence	7 days	–	IC50	0.133 µM
CCC(=CCc1c(O)cc2c(c1O)C(=O)CC(c1ccc(OC)cc1O)O2)CC (stereo not drawn)	normal pig cell line	cytotoxicity, MTT	48 h	–	IC50	10.6 ± 2.7 µM
COC(=O)N1c2ccc3c(nc(Cc4ccccc4)n3[C@@H]3CCC[C@@H](C(=O)O)C3)c2CC[C@@H]1C	AU565	cell growth or viability, ATP luminescence	10 days	–	IC50	0.61 µM
O=C(CN1CCN(C(=O)c2ccc(F)cc2)CC1)Nc1cccc(C(=O)Nc2ccc3[nH]ncc3c2)c1	KM12	cell growth or viability, ATP luminescence	72 h	–	IC50	33.6 µM
Cc1ncsc1-c1ccc(C(C)NC(=O)C2CC(O)CN2C(=O)C(NC(=O)CCCCCCCCCCN2CCCC(Nc3ncc(Cl)c(Nc4ccccc4S(=O)(=O)C(C)C)n3)C2)C(C)(C)C)cc1 (stereo not drawn)	22Rv1	RNA-seq, measured: LTO1 mRNA	concentration not given	baseline: DMSO	log2 fold change	-1.07
COc1c(Cl)cccc1Nc1c(-c2ccncc2C#C[C@@]2(C)CCCN2C(=O)/C=C/CN(C)C)[nH]c2c1C(=O)NCC2	NCI-H2073 ASV knock-in	cell proliferation, CellTiter-Glo	72 h, geometric mean	–	IC50	0.0101 µM
Cn1cc(-c2n[nH]c3ccc(NC(=O)c4cccc(NC(=O)Nc5ccc(C(F)(F)F)cc5)c4)cc23)cn1	KM12	cell growth or viability, ATP luminescence	72 h	–	IC50	> 50 µM
CCOc1cncc(-c2ccc(NC(=O)C3(c4ccnc(NS(=O)(=O)C5CC5)n4)CCOCC3)nc2)n1	Detroit 562	cell growth, CellTiter-Glo	72 h	–	IC50	10 µM

For quick reference, copied from above:
SMILES	cell line	test	conditions	how to read	quantity	result
O=C(CN1CCN(C(=O)c2ccc(F)cc2)CC1)Nc1cccc(C(=O)Nc2ccc3[nH]ncc3c2)c1	KM12	cell growth or viability, ATP luminescence	72 h	–	IC50	33.6 µM
Cc1ncsc1-c1ccc(C(C)NC(=O)C2CC(O)CN2C(=O)C(NC(=O)CCCCCCCCCCN2CCCC(Nc3ncc(Cl)c(Nc4ccccc4S(=O)(=O)C(C)C)n3)C2)C(C)(C)C)cc1 (stereo not drawn)	22Rv1	RNA-seq, measured: LTO1 mRNA	concentration not given	baseline: DMSO	log2 fold change	-1.07
